Experimental data of several laboratories.
A part holds a random share of what one study measured.

Block 1
Target: RING finger protein unkempt homolog, zinc fingers 1-6, GST-SBP tag (UNK, Homo sapiens, UniProt Q9C0B0, residues 30-357)
Technique: RNA Bind-n-Seq
Form: RNA
Medium: in vitro
Concentration: not given
Setting: RNA with constant flanks, human and mouse sites, ends assumed
Reference: input RNA pool
Reading: higher = stronger binding
Measurement: bound/input enrichment
Construct (chain): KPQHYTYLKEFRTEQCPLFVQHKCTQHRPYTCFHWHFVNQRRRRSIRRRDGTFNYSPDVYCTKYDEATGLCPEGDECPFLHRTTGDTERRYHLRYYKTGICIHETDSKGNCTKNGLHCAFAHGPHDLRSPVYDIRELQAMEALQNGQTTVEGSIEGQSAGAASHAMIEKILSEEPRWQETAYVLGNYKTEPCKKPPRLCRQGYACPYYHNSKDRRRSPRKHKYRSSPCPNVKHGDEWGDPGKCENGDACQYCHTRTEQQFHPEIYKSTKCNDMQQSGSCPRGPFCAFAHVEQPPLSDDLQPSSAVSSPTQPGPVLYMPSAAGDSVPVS
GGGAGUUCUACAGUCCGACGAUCGUGGGCAUAUAUAUAUACACGUGCAAAUAUCAGAAUUGUUAAUAAUUUGUUACACAUGGACAUUUGUUCCAAACUGACUAAAAAUCAAUAUAGAUAUUUUAUAUACAUAUAUAUAUAUAACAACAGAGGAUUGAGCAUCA: 0.342 ratio
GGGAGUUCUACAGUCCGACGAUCGGCCAGCUCAAUGCUGACCUCCGCAAGUUGGCAGUCAACAUGGUCCCCUUCCCACGUCUCCAUUUCUUUAUGCCUGGCUUUGCCCCUCUCACCAGCCGUGGAAGCCAGCAGUAUCGAGCUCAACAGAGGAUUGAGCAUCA: 0.324 ratio
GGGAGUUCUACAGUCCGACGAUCGUGACAGAAAUUCCUAAAGAAGAGAAGGACCCUGGAAUGGGUGCAAUGGGUGGCAUGGGAGGGGGUAUGGGAGGCGGCAUGUUCUAACUCCUAGAGUAGUGCUUUGCCCUUAUCAAUGAACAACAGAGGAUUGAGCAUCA: 0.321 ratio
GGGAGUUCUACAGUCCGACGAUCCGAGUCCCGGCCACCCGGCGCAGCCCUGGGCCCGGGCCCAGCCAGUCACCCCGCAGCCCGAAACACACGCGGCCAGCGGAGCUGCGGCUGGCACCCUUGACCAGGGUGCUUACGCCACCCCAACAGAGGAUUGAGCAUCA: 0.0718 ratio
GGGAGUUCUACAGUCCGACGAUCCCAGAUGACCGGUCGCAGGGAGCAGCCAUUGGGGGGCGGCCAGGACUGCCUGGCCCAGAGCAUAGCCCUGGCACAGAAUCUCAGCCUUCGUCGCCUUCUCCAACCCCAUCACCACCCCCACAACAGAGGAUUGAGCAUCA: 0.224 ratio
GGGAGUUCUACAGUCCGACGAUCAAGUUUCCAUUCUGUCAAGUAAGUACAGAAGAAGGCAAAGGGAAGAUCUGGUGGAAUCUUCGAAAAACCUGCUACAGUAUUGUUGAGCACAACUGGUUUGAGACUUUCAUUGUGUUCAUGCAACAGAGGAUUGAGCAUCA: 0.112 ratio
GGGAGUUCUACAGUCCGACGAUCAGAUGGAAAGUGUUAAGAAAGAUUGGAGGUGGGGGCUUUGGAGAAAUUUACGAUGCCUUGGACAUGCUCACCAGGGAGAAUGUGGCGCUGAAGGUGGAGUCAGCUCAGCAGCCAAAGCAGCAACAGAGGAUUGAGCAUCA: 0.359 ratio
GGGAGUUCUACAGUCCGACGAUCGGAAGGACUGCGCUGCAGGUUAUGAAACUUGGAAAUCCCGAGAUUGCCAGGAGACUGCUACUUAGAGGUGCUAAUCCCGAUUUGAAAGACCGAACUGGUUUCGCUGUCAUUCAUGAUGCGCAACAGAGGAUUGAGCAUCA: 0.177 ratio
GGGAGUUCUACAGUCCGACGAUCUCCCCCCCUCCACCGCCUCCUCCAGAAGAUUAUGAAGAGGAGGAAGCAGCUGUGGUUGAGUACAGCGAUCCGUACGCUGAAGAGGACCCACCGUGGGCGCCAAGGGCUUACUUGGAAAAGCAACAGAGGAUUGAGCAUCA: 0.209 ratio
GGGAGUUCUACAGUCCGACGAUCAGUAAAGUUGACAAUAAAACCAGAGUUUCUAUCUAUCUGAUUUUUUUUUUUUUUUAAUUGUAGUUGCACUUGUAGAUCAGAUUAUCAGAGGCAGGAGCACUCCCGGAUUGGAGCAUACUUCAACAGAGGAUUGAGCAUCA: 2.19 ratio
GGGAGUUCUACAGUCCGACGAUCAGGGAAGACUUGAUCUGUGGACUUUUGAAAGCAACUUGAGGAAAAACACAUAACAGAAUCUAUAGGUGUGGACAAUAUGUGAUAUUGCUAAAUAAUGUCAAGUAGGAAAUAAAAGAGACUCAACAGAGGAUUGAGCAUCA: 2.37 ratio

Block 2
Target: Histone acetyltransferase KAT6A, winged helix 1, GST fusion (KAT6A, Homo sapiens, UniProt Q92794, residues 1-85)
Technique: protein binding microarray
Form: double-stranded DNA, one strand shown
Medium: in vitro
Concentration: not given
Setting: 8-mer, flanks averaged, mean of 2 arrays, mostly near background
Reference: not given
Reading: higher = stronger binding
Measurement: E-score
Target sequence (chain): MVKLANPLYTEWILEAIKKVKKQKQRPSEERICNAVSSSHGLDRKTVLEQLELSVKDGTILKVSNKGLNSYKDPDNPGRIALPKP
ACTCGAAG: -0.0877
AGGGATAA: -0.207
GGGATGCA: -0.0974
GCTGCGCC: 0.229
ATTGTGCA: -0.142
ACAGAATA: -0.179
ACGAAACG: 0.0722
CTCCTATA: -0.218
GCTAGTTA: 0.157
CAGCGACG: 0.294
AGTAGATA: -0.0213
CTCCTCCC: -0.077
CAGGTGTC: -0.0138
GAACTAAC: -0.0964
CGGCGCAA: 0.427
ATCCTACG: 0.00126
CCATTCCA: -0.0677

Block 3
Target: RNA binding protein fox-1 homolog 2, RRM domain, GST-SBP tag (RBFOX2, Homo sapiens, UniProt O43251-10, residues 100-194)
Technique: RNA Bind-n-Seq
Form: RNA
Medium: in vitro
Concentration: 365 nM
Setting: natural RNA segment, single round, ends assumed
Reference: no-protein control
Reading: higher = stronger binding
Measurement: RBNS enrichment (R)
Residues (chain): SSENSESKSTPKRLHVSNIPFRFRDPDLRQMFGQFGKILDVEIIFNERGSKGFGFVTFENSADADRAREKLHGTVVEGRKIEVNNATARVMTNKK
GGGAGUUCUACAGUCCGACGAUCAACCAGUGAAGUUUGAUGGACUGUGCAUAGAGUUUUGCAGCUUUUGAGUAGUGUGACAGAGUUUGCCUCUUAAAAUUGUUUUGCUAAUAAGUCAGAAGUUUAAAAUGUGUUGGAAUUCUCGGGUGCCAA: 2.34
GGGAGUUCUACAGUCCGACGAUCUGUUGGGGUUCCAGUGGAGCUGAGAAAGUGAACAAUCCAGCUACUUAAAGCAACAACAAAACCUGUUCAUCUGGAUCCCUAGGUAAUUUUGACCAAGGUGAGACUUUUGGUGGAAUUCUCGGGUGCCAA: 0.292
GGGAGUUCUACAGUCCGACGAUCAAUCCAUUUAUUUCAUUUACAAAAGAUUUAUUGUAAGCAUCUCAAUCUUGGUUUGUCAGUUUAUCUUAAGCAUGUCAAUUCAUAAAAACAAGUCAUUUUUGUAUUUUUCAUGGAAUUCUCGGGUGCCAA: 11.7
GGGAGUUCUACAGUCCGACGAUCUUCCUCUGCGGUCAUGUUGGCUUUCAUGCUGGAUCAAAUGUUUUACUUUCCCAGACUGGUGGCAUCUGAGUUCCCCAUCCUACCACUCUCACCCCACUUUCCUGCCCCACUGGAAUUCUCGGGUGCCAA: 0.993
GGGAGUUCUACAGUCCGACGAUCAACCAUAGUGCACAUAUUCCAGGAAAGUGUCUUUAAAAACAAAAACAAACCCUGAAAUGUAUAUUUGGGAUUAUGAUAAGGCAACUAAAGACAUGAAACCUCAGGUAUCCUGGAAUUCUCGGGUGCCAA: 0.387
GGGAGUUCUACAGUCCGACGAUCCCUGACCCCAGGUGAUCCACCUGCCUCAGCCUUCCAAAGUGCUGGGAUUACAGGCAUGAGCCACCGUGGCCGGCCAAGAUUUUAAGCCUUCUGAGCCUUGAAAUUGAGGAUGGAAUUCUCGGGUGCCAA: 0.159
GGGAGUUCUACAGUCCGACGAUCCCGGGGCCCAGCACGUUGCCCUGGGCCUGUGGCCGGAGUCGGAGUCCUCUCUCCUCCUCCUGGCUUUUGGAAAGGCUUGGCUGUGUUGGGGAGUCUCUCUUAGCCCUUUCUGGAAUUCUCGGGUGCCAA: 8.25
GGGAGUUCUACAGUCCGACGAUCAUGAAUAAUCUCUUGUAGGUAACUUUAUUUGAAAAUAAAGAUUUCCUUUUACUUCCAGAAUAACCACAAUGGCUUCUAAAAAGUUCUCAUCUCACACAGCCCUUGUUUUGUGGAAUUCUCGGGUGCCAA: 0.437
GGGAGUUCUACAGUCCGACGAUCAGUGUAAACAGUAGACACCCAGAAAAUCGUGACUUCUGUGUUCUCUCCAUUUGAGUAUUUUGUAAUUUUUUUGAAAUAUUUGUGGACAUAAAUAAAACCAAGCUACACUAUGGAAUUCUCGGGUGCCAA: 0.492
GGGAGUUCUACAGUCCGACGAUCACACCCAAUACACACAAAACAAAAGUAACUCAAGAAUAGCCUGGGCUACAUAGCAAGAGCCUGUCUCAAAACAAACGAACCUAUGAAGAGCCAGGCAGUCUAUCUAUUUAUGGAAUUCUCGGGUGCCAA: 0.691
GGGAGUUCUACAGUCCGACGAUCGGUAGAUUUUAAGAAUGGUCUCAGUGUUAAUACUGAGAAAAAGUCCUGUCAGUUCAGAAAAAAUGUGAAGUCUACUUUAGUAUUCCUGUAAUACUAAACCGUUGAGUUUCUGGAAUUCUCGGGUGCCAA: 1.81
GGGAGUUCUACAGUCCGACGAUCUGGGUCCUGGAUCCUUCCCCCCUUCUCACCAUAACCCCCUCUCAGUGUUUCCCCAACUUCUCCCUUUUAGCAGGGUCCCUUUAGAGCCCAACUCCAGGUCAAAUCUGGAGUGGAAUUCUCGGGUGCCAA: 0.938

Block 4
Target: Phosphate system positive regulatory protein PHO4, full length, GST-tagged (PHO4, Saccharomyces cerevisiae, UniProt P07270, residues 1-312)
Technique: competition protein-binding microarray
Form: double-stranded DNA, one strand shown
Medium: in vitro
Concentration: 2 µM
Setting: whole 60-bp probe, lowest competitor level
With: Cbf1 competitor, 0.05 µM
Reading: higher = stronger binding
Measurement: fluorescence intensity
Residues (chain): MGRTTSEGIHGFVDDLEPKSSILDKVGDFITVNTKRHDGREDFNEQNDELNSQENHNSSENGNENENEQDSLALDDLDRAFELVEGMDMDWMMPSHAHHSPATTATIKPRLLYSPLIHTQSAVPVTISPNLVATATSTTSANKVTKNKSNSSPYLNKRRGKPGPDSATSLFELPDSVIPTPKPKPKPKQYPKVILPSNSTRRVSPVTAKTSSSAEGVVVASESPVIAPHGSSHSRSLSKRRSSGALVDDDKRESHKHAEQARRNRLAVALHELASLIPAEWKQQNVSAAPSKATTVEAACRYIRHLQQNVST
CTCAACATGGCAGAAGATGTGACGAATCTTATGCTTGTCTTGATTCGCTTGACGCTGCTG: 4830 a.u.
AAAGCGGTAATTTTTCACGTGTTCTCACATATCTATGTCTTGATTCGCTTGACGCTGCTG: 13500 a.u.
CAGATGTTCGTGTAATGGTACCCGACACTCGATGAGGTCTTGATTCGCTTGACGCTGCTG: 4700 a.u.
ACTCCCTGGAAAAAGCACGTGCCGAGCTGGATCTGCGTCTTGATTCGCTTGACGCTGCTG: 20500 a.u.
GTCTTGTCTCATTGATCAGTGGGTGTCCCCACTTCAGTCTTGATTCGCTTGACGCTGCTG: 4000 a.u.
GTCTTGTCTCATTGGCTAGTGGGTGTCCCCACTTCAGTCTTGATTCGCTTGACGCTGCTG: 4450 a.u.
CTCTTATTAACCAATGTCGTGCGGATCAAAATGCTAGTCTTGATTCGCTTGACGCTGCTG: 8060 a.u.
TACAATGTCGAGCCTCTCGTGGGTAATCTGGAACAGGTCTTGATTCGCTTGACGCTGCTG: 8210 a.u.
CGTCCTAGTGATTGGTCGGTGGGTGCCATGAGGAAGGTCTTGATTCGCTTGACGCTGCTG: 6240 a.u.
CATACCCAACCTTGGATGGTGGGTGAAGATATTTGTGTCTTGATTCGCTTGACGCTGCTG: 3950 a.u.
CCCCCAACTGACACACACGTGAGACCCTGCTGAAAGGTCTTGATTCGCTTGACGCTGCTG: 14900 a.u.
AAGTGTCCTGCATTCCATGTGAAAGTTAAATAATCTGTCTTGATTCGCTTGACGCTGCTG: 5190 a.u.
AAATTACTAAGTTGACGGGTGGGTGACGCCGTATGAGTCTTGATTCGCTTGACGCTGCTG: 5100 a.u.
AAATTACTAAGTTGTTTGGTGGGTGACGCCGTATGAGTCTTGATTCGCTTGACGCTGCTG: 3780 a.u.
CGGGGTTAAGTTTGTGCCGTGGGTGGCTTGCAGCAGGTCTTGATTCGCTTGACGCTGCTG: 5610 a.u.
CGGGGTTAAGTTTGACGGGTGGGTGGCTTGCAGCAGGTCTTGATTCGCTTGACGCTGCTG: 5310 a.u.
GATTCACTTGATATTCACGTGCAAAAACCATTAGTAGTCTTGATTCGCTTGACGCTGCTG: 15700 a.u.
GTCAGTATCTTCCATCACATGACAATCTTGTGCATCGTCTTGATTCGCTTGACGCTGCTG: 8390 a.u.
AAAGCGGTAATTTGCATTGTGGGTGCAGATATCTATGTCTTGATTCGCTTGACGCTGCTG: 5080 a.u.
